{"data": "Measurements collected from several papers", "note": "Protocols differ between the studies behind these lines."}
{"SMILES": "CC[C@H](C)[C@@H]1NC(=O)[C@H](Cc2ccc(O)cc2)NC(=O)[C@@H](N)CSSC[C@@H](C(=O)N2CCC[C@H]2C(=O)N[C@@H](CC(C)C)C(=O)NCC(N)=O)NC(=O)[C@H](CC(N)=O)NC(=O)[C@H](CCC(=O)O)NC1=O", "test": "capillary electrophoresis", "system": "50 mM phosphate buffer", "setting": "pH 2.0, 70 °C, 0.1 mg/mL oxytocin", "endpoint": "time to peak degradant", "value": "72 h"}
{"SMILES": "O=C1c2ccc3c4ccc5c6c(ccc(c7ccc(c2c37)C(=O)N1CCN1CCCCC1)c64)C(=O)N(CCN1CCCCC1)C5=O", "system": "buffer 10 mM", "setting": "40 µM, pH 7", "endpoint": "time to complete precipitation", "value": "≤ 2 days"}
{"SMILES": "CC(C)Oc1ncnc2c1c(Cl)cn2[C@@H]1O[C@H](CO)[C@@H](O)[C@H]1O", "system": "mouse liver microsomes", "setting": "phase I metabolism", "endpoint": "time to complete degradation", "value": "≤ 15 min"}
{"SMILES": "CCCC1OC2CC3C4CCC5=CC(=O)C=CC5(C)C4C(O)CC3(C)C2(C(=O)COC(=O)CN)O1 (centres unmarked)", "setting": "concentration not given, pH 7.4, 37 °C", "endpoint": "time to near-complete hydrolysis", "value": "≤ 24 h"}
{"SMILES": "CC(C)C[C@H](NC(=O)[C@@H](N)Cc1c[nH]cn1)C(=O)N1CCC[C@H]1C(=O)N[C@@H](CO)C(=O)N[C@@H](Cc1ccc(O)cc1)C(=O)N[C@@H](CO)C(=O)N1CCC[C@H]1C(=O)N[C@@H](CO)C(=O)N1CCC[C@H]1C(=O)N[C@@H](CCC(N)=O)C(=O)O", "test": "LC-MS/MS", "system": "human plasma", "setting": "37 °C", "endpoint": "time to reach limit of detection", "value": "8 h"}
{"SMILES": "CCCC1OC2CC3C4CCC5=CC(=O)C=CC5(C)C4C(O)CC3(C)C2(C(=O)COC(=O)C(C)N)O1 (centres unmarked)", "system": "human plasma", "setting": "200 µg/mL, 37 °C", "endpoint": "time to complete hydrolysis", "value": "≤ 8 h"}
{"SMILES": "C[C@H](NC(=O)[C@H](Cc1cnc[nH]1)NC(=O)[C@H](CO)NC(=O)[C@@H](N)CC(=O)O)C(=O)N[C@@H](CCCCN)C(=O)N[C@@H](CCCNC(=N)N)C(=O)N[C@@H](Cc1cnc[nH]1)C(=O)N[C@@H](Cc1cnc[nH]1)C(=O)NCC(=O)N[C@@H](Cc1ccc(O)cc1)C(=O)N[C@@H](CCCCN)C(=O)N[C@@H](CCCNC(=N)N)C(=O)N[C@@H](CCCCN)C(=O)N[C@@H](Cc1ccccc1)C(=O)N[C@@H](Cc1cnc[nH]1)C(=O)N[C@@H](CCC(=O)O)C(=O)N[C@@H](CCCCN)C(=O)N[C@@H](Cc1cnc[nH]1)C(=O)N[C@@H](Cc1cnc[nH]1)C(=O)N[C@@H](CO)C(=O)N[C@@H](Cc1cnc[nH]1)C(=O)N[C@@H](CCCNC(=N)N)C(=O)NCC(=O)N[C@@H](Cc1ccc(O)cc1)C(=O)O", "test": "cationic PAGE", "system": "pooled whole saliva supernatant G2, diluted 1:10", "setting": "100 µg/mL, 37 °C", "endpoint": "time to fragment appearance", "value": "1.5 h"}
{"SMILES": "CCCC1OC2CC3C4CCC5=CC(=O)C=CC5(C)C4C(O)CC3(C)C2(C(=O)COC(=O)CN(C)C)O1 (centres unmarked)", "setting": "concentration not given, pH 7.4, 37 °C", "endpoint": "time to near-complete hydrolysis", "value": "≤ 24 h"}
{"SMILES": "N=C(N)NCCC[C@H]1NC(=O)[C@H](N)CSSC[C@H](C(N)=O)NC(=O)[C@@H](CCCNC(=N)N)NC(=O)[C@@H](CCCNC(=N)N)NC(=O)[C@@H](CCCNC(=N)N)NC(=O)[C@@H](CCCNC(=N)N)NC(=O)[C@@H](Cc2c[nH]c3ccccc23)NC(=O)[C@@H](CCCNC(=N)N)NC1=O", "test": "HPLC", "system": "PBS", "setting": "concentration not given, pH 7.4, room temperature, together with: GSH 4 mM", "endpoint": "time to near-complete reduction", "value": "≤ 1 min"}
{"SMILES": "C=C(C)C(=O)NCCCCCC(=O)N[C@@H](Cc1ccccc1)C(=O)N[C@@H](CCCCN)C(=O)N[C@@H](Cc1ccccc1)C(=O)N[C@@H](CC(C)C)C(=O)NCCCCCC(=O)N[C@@H](CCCCN)C(=O)N[C@@H](CCCCN)C(=O)N[C@@H](CCCCN)C(=O)N[C@@H](CCCCN)C(=O)N[C@@H](CCCCN)C(=O)N[C@@H](CCCCN)C(=O)N[C@@H](CCCCN)C(=O)N[C@@H](CCCCN)C(=O)N[C@@H](CCCCN)C(=O)N[C@@H](CCCCN)C(N)=O", "test": "MALDI-TOF MS", "system": "mouse serum", "setting": "37 °C", "endpoint": "time to onset of degradation", "value": "≤ 1 h"}
{"SMILES": "CC=C1C(OC2OC(CO)C(O)C(O)C2O)OC=C(C(=O)OC)C1CC(=O)OCC1OC(OCCc2ccc(O)cc2)C(O)C(O)C1O (centres unmarked)", "system": "mouse intestinal contents, anaerobic", "setting": "10 µg/mL, 37 °C", "endpoint": "time to complete consumption", "value": "≤ 1 h"}
{"note": "Some of these lines once more:"}
{"SMILES": "C=C(C)C(=O)NCCCCCC(=O)N[C@@H](Cc1ccccc1)C(=O)N[C@@H](CCCCN)C(=O)N[C@@H](Cc1ccccc1)C(=O)N[C@@H](CC(C)C)C(=O)NCCCCCC(=O)N[C@@H](CCCCN)C(=O)N[C@@H](CCCCN)C(=O)N[C@@H](CCCCN)C(=O)N[C@@H](CCCCN)C(=O)N[C@@H](CCCCN)C(=O)N[C@@H](CCCCN)C(=O)N[C@@H](CCCCN)C(=O)N[C@@H](CCCCN)C(=O)N[C@@H](CCCCN)C(=O)N[C@@H](CCCCN)C(N)=O", "test": "MALDI-TOF MS", "system": "mouse serum", "setting": "37 °C", "endpoint": "time to onset of degradation", "value": "≤ 1 h"}
{"SMILES": "C[C@H](NC(=O)[C@H](Cc1cnc[nH]1)NC(=O)[C@H](CO)NC(=O)[C@@H](N)CC(=O)O)C(=O)N[C@@H](CCCCN)C(=O)N[C@@H](CCCNC(=N)N)C(=O)N[C@@H](Cc1cnc[nH]1)C(=O)N[C@@H](Cc1cnc[nH]1)C(=O)NCC(=O)N[C@@H](Cc1ccc(O)cc1)C(=O)N[C@@H](CCCCN)C(=O)N[C@@H](CCCNC(=N)N)C(=O)N[C@@H](CCCCN)C(=O)N[C@@H](Cc1ccccc1)C(=O)N[C@@H](Cc1cnc[nH]1)C(=O)N[C@@H](CCC(=O)O)C(=O)N[C@@H](CCCCN)C(=O)N[C@@H](Cc1cnc[nH]1)C(=O)N[C@@H](Cc1cnc[nH]1)C(=O)N[C@@H](CO)C(=O)N[C@@H](Cc1cnc[nH]1)C(=O)N[C@@H](CCCNC(=N)N)C(=O)NCC(=O)N[C@@H](Cc1ccc(O)cc1)C(=O)O", "test": "cationic PAGE", "system": "pooled whole saliva supernatant G2, diluted 1:10", "setting": "100 µg/mL, 37 °C", "endpoint": "time to fragment appearance", "value": "1.5 h"}
